Published values gathered from unrelated publications.
Every numbered part comes from another study and shows a few of its results, in no order.

Study 1
Target: Prothrombin, mature alpha-thrombin (F2, Homo sapiens, UniProt P00734)
Method: aptamer microarray, sandwich
Form: DNA with 2'F-ANA
Medium: in vitro
Tested at: 200 nM
Setting: whole 15-mer aptamer, many near background
With: Cy3 exosite-II aptamer, 400 nM
Direction: higher = stronger binding
Measurement: mean fluorescence intensity
Sequence: GGTTGGTGTGGTTGG
Modification = 2'F-ANA at 1 3 4 5 6 7 8 9 13 14 15; result = 46.5 a.u.
Modification = 2'F-ANA at 1 2 5 8 10 11 13 14; result = 47.5 a.u.
Modification = 2'F-ANA at 1 2 4 7 8 12 15; result = 313 a.u.
Modification = 2'F-ANA at 1 7 9 12 15; result = 417 a.u.
Modification = 2'F-ANA at 1 2 3 4 6 7 10 12; result = 76.3 a.u.

Study 2
Target: PABPC1L2, full length, GST fusion (mouse, UniProt A0ABA7IW68)
Method: RNAcompete
Form: RNA
Medium: in vitro
Tested at: 20 nM
Setting: 7-mer, probes averaged, single round
Baseline: mean of 7-mers
Direction: higher = stronger binding
Measurement: 7-mer Z-score
Construct (chain): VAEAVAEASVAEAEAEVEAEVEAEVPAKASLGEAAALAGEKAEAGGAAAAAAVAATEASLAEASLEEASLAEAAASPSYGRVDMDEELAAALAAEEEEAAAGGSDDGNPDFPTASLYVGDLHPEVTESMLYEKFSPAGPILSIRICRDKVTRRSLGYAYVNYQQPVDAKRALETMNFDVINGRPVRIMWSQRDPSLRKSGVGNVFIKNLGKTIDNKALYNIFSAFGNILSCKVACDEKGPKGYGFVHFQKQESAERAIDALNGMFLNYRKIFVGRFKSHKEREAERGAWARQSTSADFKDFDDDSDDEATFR
Sequence = AUAUGUG; result = -0.0935
Sequence = ACAAGCG; result = 0.0642
Sequence = GUCCGUG; result = -0.166
Sequence = GUAGAGG; result = 0.0895

Study 3
Target: Sal-like protein 4, full length isoform B (SALL4, Homo sapiens, UniProt Q9UJQ4-2, residues 1-616)
Method: universal PBM
Form: double-stranded DNA, one strand shown
Medium: in vitro
Tested at: not given
Setting: 8-mer, flanks averaged, mean of replicates
Direction: higher = stronger binding
Measurement: E-score
Residues (chain): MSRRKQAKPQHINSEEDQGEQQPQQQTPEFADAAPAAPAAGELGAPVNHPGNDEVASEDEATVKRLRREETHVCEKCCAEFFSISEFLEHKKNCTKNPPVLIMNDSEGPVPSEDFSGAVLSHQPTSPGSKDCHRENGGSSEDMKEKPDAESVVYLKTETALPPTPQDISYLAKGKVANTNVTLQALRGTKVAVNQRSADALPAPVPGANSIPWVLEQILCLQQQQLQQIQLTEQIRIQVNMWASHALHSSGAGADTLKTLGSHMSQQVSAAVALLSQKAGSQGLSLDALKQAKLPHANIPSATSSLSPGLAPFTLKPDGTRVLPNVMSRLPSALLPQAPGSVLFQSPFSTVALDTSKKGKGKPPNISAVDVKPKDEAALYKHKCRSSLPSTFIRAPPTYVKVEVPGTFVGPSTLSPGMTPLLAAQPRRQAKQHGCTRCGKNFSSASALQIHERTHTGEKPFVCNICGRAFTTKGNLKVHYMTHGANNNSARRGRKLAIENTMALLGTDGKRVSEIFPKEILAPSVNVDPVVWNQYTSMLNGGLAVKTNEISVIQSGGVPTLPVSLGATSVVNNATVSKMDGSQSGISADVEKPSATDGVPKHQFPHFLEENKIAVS
Sequence = CATACATC; result = 0.235
Sequence = GTATAAAC; result = 0.211
Sequence = GCACTATA; result = 0.12
Sequence = ATCGAACG; result = -0.0205

Mixed results
Substance = PhoQ, residues 284 288 289 292 302 303 SVHLDV; target = PhoP, residues 12 14 15 18 19 NQGLL (Escherichia coli, UniProt P23836); test = Sort-seq, item: YFP reporter; system = E. coli; conditions = PhoQ-PhoP variant library, with: 10 µM Mg2+; how to read = baseline: high Mg2+ state, higher = stronger signaling; measurement = fold induction; result = 1.96

Repeated from above (study 2):
Sequence = ACAAGCG; result = 0.0642
Sequence = GUCCGUG; result = -0.166
